Results collected from several papers.
Each line is one published result; not all experiments were run side by side. ± gives the spread as reported.
Oprk1: Kappa-type opioid receptor (Oprk1, Rattus norvegicus, UniProt P34975)
Chain of UniProt P34975 (whole entry, looked up): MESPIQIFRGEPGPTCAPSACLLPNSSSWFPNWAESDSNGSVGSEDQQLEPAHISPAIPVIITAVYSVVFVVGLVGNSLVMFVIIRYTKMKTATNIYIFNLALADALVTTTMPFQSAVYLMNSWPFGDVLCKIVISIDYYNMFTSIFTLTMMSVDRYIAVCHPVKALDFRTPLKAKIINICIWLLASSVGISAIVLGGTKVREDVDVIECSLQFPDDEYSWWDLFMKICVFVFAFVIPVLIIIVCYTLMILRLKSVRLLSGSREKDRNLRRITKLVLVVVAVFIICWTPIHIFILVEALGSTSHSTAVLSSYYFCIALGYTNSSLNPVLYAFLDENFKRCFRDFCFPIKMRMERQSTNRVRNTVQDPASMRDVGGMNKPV
ache: Acetylcholinesterase (ache, Electrophorus electricus, UniProt O42275)
Chain of UniProt O42275 (whole entry, looked up): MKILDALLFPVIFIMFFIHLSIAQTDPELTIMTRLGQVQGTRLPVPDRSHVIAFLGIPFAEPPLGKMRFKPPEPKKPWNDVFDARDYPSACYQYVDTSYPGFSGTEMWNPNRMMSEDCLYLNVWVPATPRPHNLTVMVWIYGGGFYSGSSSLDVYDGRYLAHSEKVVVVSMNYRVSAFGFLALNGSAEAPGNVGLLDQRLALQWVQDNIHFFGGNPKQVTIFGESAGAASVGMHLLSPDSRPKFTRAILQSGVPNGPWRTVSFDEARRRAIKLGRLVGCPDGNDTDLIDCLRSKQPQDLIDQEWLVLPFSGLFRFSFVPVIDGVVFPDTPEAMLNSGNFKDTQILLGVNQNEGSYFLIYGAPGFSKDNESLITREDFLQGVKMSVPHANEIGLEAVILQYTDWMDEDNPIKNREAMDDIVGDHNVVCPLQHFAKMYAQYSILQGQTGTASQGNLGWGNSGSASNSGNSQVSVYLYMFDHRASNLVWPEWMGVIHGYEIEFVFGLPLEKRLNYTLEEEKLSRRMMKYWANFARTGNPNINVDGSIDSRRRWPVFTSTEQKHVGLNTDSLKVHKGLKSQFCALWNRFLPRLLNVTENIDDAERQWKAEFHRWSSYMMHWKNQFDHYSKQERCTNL
Tripartite terminase subunit 3 C-terminal nuclease domain: Tripartite terminase subunit 3, C-terminal nuclease domain (Human betaherpesvirus 5, UniProt P16732)
Chain of UniProt P16732 (whole entry, looked up): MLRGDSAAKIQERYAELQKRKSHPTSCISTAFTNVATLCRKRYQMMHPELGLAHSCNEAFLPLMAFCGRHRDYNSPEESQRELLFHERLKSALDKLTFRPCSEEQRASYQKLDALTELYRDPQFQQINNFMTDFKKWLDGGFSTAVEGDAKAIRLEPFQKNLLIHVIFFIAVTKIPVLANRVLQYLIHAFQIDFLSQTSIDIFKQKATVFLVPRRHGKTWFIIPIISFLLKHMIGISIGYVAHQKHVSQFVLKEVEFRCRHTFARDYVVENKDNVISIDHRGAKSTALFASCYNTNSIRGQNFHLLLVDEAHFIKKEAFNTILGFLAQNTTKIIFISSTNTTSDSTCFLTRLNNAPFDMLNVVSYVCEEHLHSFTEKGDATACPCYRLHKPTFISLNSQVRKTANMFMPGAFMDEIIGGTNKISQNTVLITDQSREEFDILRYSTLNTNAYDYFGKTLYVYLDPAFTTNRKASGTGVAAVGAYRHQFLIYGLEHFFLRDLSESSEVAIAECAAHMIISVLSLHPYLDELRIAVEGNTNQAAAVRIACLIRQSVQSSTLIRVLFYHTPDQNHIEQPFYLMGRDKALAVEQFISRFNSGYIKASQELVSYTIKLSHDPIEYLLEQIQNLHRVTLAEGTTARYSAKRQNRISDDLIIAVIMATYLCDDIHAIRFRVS
AKR1C2: Aldo-keto reductase family 1 member C2 (AKR1C2, Homo sapiens, UniProt P52895)
Chain of UniProt P52895 (whole entry, looked up): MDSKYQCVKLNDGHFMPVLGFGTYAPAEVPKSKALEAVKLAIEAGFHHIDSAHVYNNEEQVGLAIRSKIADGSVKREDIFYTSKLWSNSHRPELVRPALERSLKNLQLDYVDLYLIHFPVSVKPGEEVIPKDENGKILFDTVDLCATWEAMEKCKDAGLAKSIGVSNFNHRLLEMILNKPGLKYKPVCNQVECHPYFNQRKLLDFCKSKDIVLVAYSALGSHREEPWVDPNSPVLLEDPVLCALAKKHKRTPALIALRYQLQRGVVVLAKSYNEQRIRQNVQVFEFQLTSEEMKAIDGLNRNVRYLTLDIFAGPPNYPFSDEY
CTSB: Cathepsin B (CTSB, Homo sapiens, UniProt P07858)
Chain of UniProt E2JF22 (whole entry, looked up): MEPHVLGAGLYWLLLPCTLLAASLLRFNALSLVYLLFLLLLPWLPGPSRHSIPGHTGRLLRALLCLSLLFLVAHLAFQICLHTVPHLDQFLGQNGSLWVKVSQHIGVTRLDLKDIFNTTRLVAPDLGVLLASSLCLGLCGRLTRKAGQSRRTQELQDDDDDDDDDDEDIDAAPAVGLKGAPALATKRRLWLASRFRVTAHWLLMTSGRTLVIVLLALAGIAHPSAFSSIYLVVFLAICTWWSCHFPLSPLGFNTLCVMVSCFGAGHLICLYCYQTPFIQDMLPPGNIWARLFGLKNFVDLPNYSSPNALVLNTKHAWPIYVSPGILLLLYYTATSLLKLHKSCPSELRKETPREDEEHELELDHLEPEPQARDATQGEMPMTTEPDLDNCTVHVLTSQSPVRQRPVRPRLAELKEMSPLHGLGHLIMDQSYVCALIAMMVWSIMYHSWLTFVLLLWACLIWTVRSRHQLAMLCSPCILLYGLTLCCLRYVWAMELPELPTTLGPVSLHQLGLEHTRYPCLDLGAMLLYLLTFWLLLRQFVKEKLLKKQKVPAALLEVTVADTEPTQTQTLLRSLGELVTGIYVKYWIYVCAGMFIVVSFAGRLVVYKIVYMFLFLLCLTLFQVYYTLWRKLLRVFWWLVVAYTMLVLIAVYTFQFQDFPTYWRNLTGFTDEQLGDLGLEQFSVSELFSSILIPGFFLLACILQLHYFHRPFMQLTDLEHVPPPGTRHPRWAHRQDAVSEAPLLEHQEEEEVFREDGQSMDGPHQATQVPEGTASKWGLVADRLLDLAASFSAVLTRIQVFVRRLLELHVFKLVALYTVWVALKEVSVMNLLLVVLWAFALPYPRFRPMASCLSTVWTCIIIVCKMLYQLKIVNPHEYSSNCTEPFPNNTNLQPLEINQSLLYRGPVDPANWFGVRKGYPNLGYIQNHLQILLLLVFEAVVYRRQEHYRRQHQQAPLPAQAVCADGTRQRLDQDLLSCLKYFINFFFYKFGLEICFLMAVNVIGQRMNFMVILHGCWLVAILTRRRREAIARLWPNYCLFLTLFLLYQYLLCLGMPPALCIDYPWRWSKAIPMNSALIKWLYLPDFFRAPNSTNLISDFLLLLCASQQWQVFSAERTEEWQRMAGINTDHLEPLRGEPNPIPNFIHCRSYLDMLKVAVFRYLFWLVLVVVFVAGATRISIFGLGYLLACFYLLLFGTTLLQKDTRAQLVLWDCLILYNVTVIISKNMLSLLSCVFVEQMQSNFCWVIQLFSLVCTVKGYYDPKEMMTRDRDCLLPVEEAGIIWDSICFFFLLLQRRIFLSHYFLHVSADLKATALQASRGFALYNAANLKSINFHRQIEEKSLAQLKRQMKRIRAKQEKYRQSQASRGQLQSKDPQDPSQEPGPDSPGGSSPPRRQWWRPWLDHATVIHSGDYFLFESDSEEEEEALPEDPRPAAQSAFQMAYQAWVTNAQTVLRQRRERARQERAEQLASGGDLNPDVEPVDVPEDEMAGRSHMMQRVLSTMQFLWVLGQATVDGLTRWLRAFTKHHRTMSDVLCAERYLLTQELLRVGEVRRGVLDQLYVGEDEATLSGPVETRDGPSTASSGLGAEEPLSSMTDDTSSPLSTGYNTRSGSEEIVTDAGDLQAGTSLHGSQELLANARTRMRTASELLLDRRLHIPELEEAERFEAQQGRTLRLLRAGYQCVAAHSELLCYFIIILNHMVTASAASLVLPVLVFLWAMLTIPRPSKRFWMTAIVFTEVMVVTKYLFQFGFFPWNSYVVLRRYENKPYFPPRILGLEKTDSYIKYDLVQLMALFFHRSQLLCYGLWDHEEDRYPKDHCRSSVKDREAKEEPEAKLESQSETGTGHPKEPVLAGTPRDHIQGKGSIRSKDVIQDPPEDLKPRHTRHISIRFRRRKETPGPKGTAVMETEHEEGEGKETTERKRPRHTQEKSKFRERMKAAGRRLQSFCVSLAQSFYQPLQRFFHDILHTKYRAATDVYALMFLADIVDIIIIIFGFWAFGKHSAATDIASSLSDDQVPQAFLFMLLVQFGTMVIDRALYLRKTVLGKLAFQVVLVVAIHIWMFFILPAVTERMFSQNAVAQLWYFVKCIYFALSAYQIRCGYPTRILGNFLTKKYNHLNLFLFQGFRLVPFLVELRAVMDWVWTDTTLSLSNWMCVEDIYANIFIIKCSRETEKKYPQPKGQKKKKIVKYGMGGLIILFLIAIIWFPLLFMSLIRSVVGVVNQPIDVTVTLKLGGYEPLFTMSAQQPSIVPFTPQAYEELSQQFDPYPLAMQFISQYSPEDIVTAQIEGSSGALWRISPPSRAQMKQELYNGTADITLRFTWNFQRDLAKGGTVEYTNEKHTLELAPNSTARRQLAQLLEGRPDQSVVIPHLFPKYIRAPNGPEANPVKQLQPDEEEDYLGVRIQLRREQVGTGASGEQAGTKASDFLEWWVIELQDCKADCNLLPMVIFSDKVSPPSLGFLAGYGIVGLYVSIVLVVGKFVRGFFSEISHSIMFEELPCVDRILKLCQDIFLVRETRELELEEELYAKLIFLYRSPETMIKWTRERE
Chain of UniProt Q99QC1 (whole entry, looked up): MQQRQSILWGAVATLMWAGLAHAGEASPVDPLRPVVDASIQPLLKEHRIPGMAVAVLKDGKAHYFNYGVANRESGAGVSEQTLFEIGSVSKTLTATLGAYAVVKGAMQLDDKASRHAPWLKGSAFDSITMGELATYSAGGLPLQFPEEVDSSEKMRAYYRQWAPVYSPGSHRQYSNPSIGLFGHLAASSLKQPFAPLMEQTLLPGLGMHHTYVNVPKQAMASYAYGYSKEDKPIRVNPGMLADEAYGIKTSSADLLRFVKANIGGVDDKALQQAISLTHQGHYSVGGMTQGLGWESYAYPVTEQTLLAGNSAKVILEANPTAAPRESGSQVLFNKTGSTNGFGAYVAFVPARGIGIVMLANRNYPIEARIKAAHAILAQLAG

| SMILES | target | test | system | conditions | scale | inhibition |
| --- | --- | --- | --- | --- | --- | --- |
| CC(=O)N(C)[C@@H](Cc1ccccc1)C(=O)N[C@@H](Cc1ccccc1)C(=O)N[C@@H](Cc1ccc(O)cc1)C(=O)N[C@@H](CCCNC(=N)N)C(=O)N[C@@H](CC(C)C)C(=O)N[C@@H](CCCNC(=N)N)C(=O)N[C@@H](CCCNC(=N)N)C(=O)N[C@H](C)C(=O)N[C@@H](CCCNC(=N)N)C(=O)N1CCC[C@H]1C(=O)N[C@@H](CCCCN)C(N)=O | Oprk1 | adenylyl cyclase activity, agonist | CHO cells | 10 µM | baseline: dynorphin A(1-13) amide | > 40% |
| Cc1ccnc(Nc2c3c(nc4ccc(Cl)cc24)CCCC3)c1 | ache | enzyme activity, inhibitor, Ellman | – | 100 µM | – | 67.7% |
| CCS(=O)(=O)N1CCN(CC(=O)Nc2ccc(/C=C/C(=O)c3ccc(OC)c(OC)c3)cc2)CC1 | MAOB (Homo sapiens, UniProt P27338) | enzyme activity, inhibitor, fluorescence | – | 100 µM | – | 27.8% |
| O=C(NCc1cccc(F)c1F)c1cn(Cc2ccc(F)cc2)cc(O)c1=O | Tripartite terminase subunit 3 C-terminal nuclease domain | endonuclease activity, inhibitor, ELISA | – | 20 µM | – | 8% |
| NCC(CCC(N)C(=O)O)CC1OC(n2cnc3c(N)ncnc32)C(O)C1O (stereo not drawn) | PRMT8 (Homo sapiens, UniProt Q9NR22) | enzyme activity, inhibitor | – | 20 µM | – | > 50% |
| Cc1ccc(Nc2c(NC3CCN(Cc4ccccc4)CC3)c(=O)c2=O)cc1 | ache | enzyme activity, inhibitor, Ellman | – | 25 µM | – | 69.5% |
| C[C@]12CC[C@H]3[C@@H](CCC4=CC(=O)C=C[C@@]43F)[C@@H]1CCC2=O | AKR1C2 | enzyme activity, inhibitor, absorbance | – | 100 µM, pH 9 | – | 30% |
| CC(C)C[C@@H]1NC(=O)[C@@H](NC(=O)CN)CSSC[C@@H]2NC(=O)[C@@H]3CSSC[C@@H](C(=O)N[C@@H](CC(N)=O)C(=O)N[C@@H](Cc4ccccc4)C(=O)N[C@@H](CO)C(=O)N[C@@H](Cc4ccccc4)C(N)=O)NC(=O)[C@H](CC(C)C)NC(=O)[C@H](CCCCN)NC(=O)[C@H](Cc4ccccc4)NC(=O)[C@H](CC(C)C)NC(=O)[C@H](CCCCN)NC(=O)[C@H](CO)NC(=O)[C@H](CSSC[C@H](NC(=O)[C@H](CCCCN)NC(=O)[C@H](Cc4c[nH]c5ccccc45)NC(=O)[C@H](Cc4c[nH]c5ccccc45)NC(=O)[C@H](Cc4ccccc4)NC(=O)[C@H](CCC(=O)O)NC1=O)C(=O)N[C@@H](CC(N)=O)C(=O)N1CCC[C@H]1C(=O)N[C@@H](CC(N)=O)C(=O)N[C@@H](CC(=O)O)C(=O)N[C@@H](CC(=O)O)C(=O)N[C@@H](CCCCN)C(=O)N3)NC(=O)[C@H](CCCCN)NC(=O)[C@H](CC(C)C)NC(=O)[C@H](CCCCN)NC(=O)[C@@H]1CCCN1C(=O)[C@H](CCCNC(=N)N)NC2=O | Piezo1 (Mus musculus, UniProt E2JF22) | mechanosensitive current, whole-cell patch clamp | HEK293 transfected | 4.0 µM, holding potential -60 mV | – | 58 ± 6% |
| Cc1ccnc(Nc2c3c(nc4ccccc24)CCCC3)c1 | ache | enzyme activity, inhibitor, Ellman | – | 100 µM | – | 69.9% |
| CC(C)C[C@@H]1NC(=O)[C@H](C(C)C)NC(=O)[C@H](C)NC(=O)[C@H](Cc2ccc(O)cc2)NC(=O)[C@H](CCC(N)=O)NC(=O)[C@H](CC(C)C)NC(=O)[C@@H](Cc2ccc(O)cc2)NC(=O)CSC[C@@H](C(N)=O)NC(=O)[C@H](CCC(=O)O)NC(=O)[C@H](CCCNC(=N)N)NC(=O)[C@H](CCCNC(=N)N)NC(=O)[C@H](CCCCN)NC(=O)[C@H](Cc2c[nH]cn2)NC(=O)[C@H](CCCNC(=N)N)NC1=O | CTSB | enzyme activity | – | 10 µM | – | inactive |
| Cc1ccc(N2CC3CCC(C2)N3C)cc1C(=O)N[C@H](C)c1cc(-c2cnn(C)c2)nc2ccccc12 | CTSB | enzyme activity | – | concentration not given | – | no inhibition |
| COc1ccc(Nc2c3c(nc4ccc(Cl)cc24)CCCC3)nc1 | ache | – | – | 100 µM | – | 97.6 ± 3.92% |
| C[C@]12CC[C@@H]3c4ccc(O)c(Cl)c4CC[C@H]3[C@@H]1CCC2=O | AKR1C2 | enzyme activity, inhibitor, absorbance | – | 100 µM, pH 9 | – | 25% |
| Cc1ccnc(Nc2c3c(nc4ccccc24)CCC(C)C3)c1 (stereo not drawn) | ache | enzyme activity, inhibitor, Ellman | – | 50 µM | – | 79.5% |
| O=C(O)/C=C/c1ccc(O)cc1 | alpha-amylase | enzyme activity, DNS | – | 500 µg/mL | – | 76.5 ± 2.8% |
| C=CCOc1ccc(C[C@H](NC(C)=O)C(=O)N[C@@H](Cc2ccccc2)C(=O)N[C@@H](Cc2ccccc2)C(=O)N[C@@H](CCCNC(=N)N)C(=O)N[C@@H](CC(C)C)C(=O)N[C@@H](CCCNC(=N)N)C(=O)N[C@@H](CCCNC(=N)N)C(=O)N[C@H](C(=O)N[C@@H](CCCNC(=N)N)C(=O)N2CCC[C@H]2C(=O)N[C@@H](CCCCN)C(N)=O)[C@@H](C)CC)cc1 | Oprk1 | GTPγS binding | – | 10 µM, cell membranes | – | -2.5% |
| COc1ccc2cc(/C=C/c3cc[n+](Cc4ccc(F)cc4)cc3)ccc2c1 | Amyloid-beta precursor protein, amyloid-beta 1-42 peptide (Rattus norvegicus, UniProt P08592) | Abeta42 self-aggregation, thioflavin T | – | 10 µM | – | 85% |
| CCN(Cc1ccccc1)C(=O)CCc1nc(CN2CCN(C(=O)Cc3ccc(OC)c(OC)c3)CC2)no1 | SCN9A (Homo sapiens, UniProt Q15858) | sodium current, whole-cell patch clamp | HEK293, stable | 20 µM | – | 52 ± 6% |

| SMILES | target | test | system | conditions | scale | inhibition |
| --- | --- | --- | --- | --- | --- | --- |
| c1cc(Nc2c3c(nc4ccccc24)CCCC3)c2cccnc2c1 | ache | enzyme activity, inhibitor, Ellman | – | 50 µM | – | 21% |
| Nc1ccc(CCNc2c(NC3CCN(Cc4ccccc4)CC3)c(=O)c2=O)cc1 | ache | enzyme activity, inhibitor, Ellman | – | 25 µM | – | 69.5% |
| C[C@@H]1CCC2=C(CCCC2(C)C)[C@@]1(C)CC[C@H](CCCc1ccoc1)COS(=O)(=O)O | blaCMY-10 (Klebsiella aerogenes, UniProt Q99QC1) | enzyme activity, inhibitor, absorbance | – | 200 µM | – | ~90% |
| C[C@@](O)(C(F)F)[C@H](NC(=O)c1ccc(C#CC#CC2CC2)cc1)C(=O)NO | ADAM17 (Homo sapiens, UniProt P78536) | enzyme activity, inhibitor | – | 30 µM | – | ≤ 30% |
| S=C(NCc1ccccn1)NCc1ccccn1 | AMY2 (Sus scrofa, UniProt P00690) | enzyme activity, inhibitor | – | 250 µg/mL | – | 56% |
| O=C(Oc1cncc(Cl)c1)c1cccc2[nH]ccc12 | CTSB | enzyme activity, inhibitor | – | concentration not given, together with: Z-Arg-Arg-pNA | – | no inhibition |
| COc1cn(Cc2ccc(F)cc2)cc(C(=O)NCc2ccc(F)cc2F)c1=O | Tripartite terminase subunit 3 C-terminal nuclease domain | endonuclease activity, inhibitor, ELISA | – | 20 µM | – | 6% |
| C[C@]12CCC[C@H]1[C@@H]1CCc3c(cc(Br)c(O)c3Br)[C@H]1CC2 | AKR1C2 | enzyme activity, inhibitor, absorbance | – | 10 µM, pH 9 | – | 68% |
| CC(C)C(=O)Nc1ccccc1-c1nn[nH]n1 | VIM-2 (Escherichia coli, UniProt Q5U7L7) | enzyme activity, inhibitor | – | concentration not given | – | no inhibition |
| CC(C)(C)c1ccc(Nc2c3c(nc4ccccc24)CCCC3)cc1 | ache | enzyme activity, inhibitor, Ellman | – | 100 µM | – | 65% |
| CC(C)[C@H]1NC(=O)C[C@H]2/C=C/CCSSC[C@@H](NC1=O)C(=O)N[C@H](Cc1cccc3ccccc13)C(=O)NCC(=O)O2 | Phosphatidylinositol 4,5-bisphosphate 3-kinase catalytic subunit alpha isoform, with p85 (PIK3CA, Homo sapiens, UniProt P42336) | enzyme activity, inhibitor, mobility shift | – | 10 µM | – | 60.4% |
| O=C(NCc1c(F)cccc1F)c1cn(Cc2ccc(F)cc2)cc(O)c1=O | Tripartite terminase subunit 3 C-terminal nuclease domain | endonuclease activity, inhibitor, ELISA | – | 20 µM | – | 6% |
| C[C@]12CC[C@@H]3c4cc(Cl)c(O)c(Cl)c4CC[C@H]3[C@@H]1CCC2=O | AKR1C1 (Homo sapiens, UniProt Q04828) | enzyme activity, inhibitor, absorbance | – | 10 µM, pH 9 | – | 46.9% |
| c1ccc2ncc(Nc3c4c(nc5ccccc35)CCCC4)cc2c1 | ache | enzyme activity, inhibitor, Ellman | – | 50 µM | – | 34.7% |
| Nc1ccc(Nc2c(NC3CCN(Cc4ccccc4)CC3)c(=O)c2=O)cc1 | ache | enzyme activity, inhibitor, Ellman | – | 25 µM | – | 77% |
| CC(=O)NC(Cc1ccc(Br)c(Cl)c1)C(=O)N[C@@H](C)C(=O)N1CCC[C@H]1C(=O)N1CCC[C@H]1C(=O)N[C@@H](CCC(=O)O)C(=O)N[C@@H](Cc1c[nH]cn1)C(=O)N[C@@H](CO)C(=O)N[C@H](C(=O)N[C@@H](C)C(N)=O)[C@@H](C)OP(=O)(O)O (stereo partly drawn) | TEK (Homo sapiens, UniProt Q02763) | cell-free assay, inhibitor | – | 10 µM | – | 0.35% |
| c1ccc2nc(Nc3c4c(nc5ccccc35)CCCC4)ccc2c1 | ache | enzyme activity, inhibitor, Ellman | – | 50 µM | – | 72.6% |
| O=C(C[P+]([Au-][Cl])(c1ccccc1)c1ccccc1)[O][Ti+2][O]C(=O)C[P+]([Au-][Cl])(c1ccccc1)c1ccccc1.c1cc[cH-]c1.c1cc[cH-]c1 | MAPKAPK5 (Homo sapiens, UniProt Q8IW41) | kinase activity | – | 10 µM | – | ≥ 50% |

Some of these lines once more:
| SMILES | target | test | system | conditions | scale | inhibition |
| --- | --- | --- | --- | --- | --- | --- |
| COc1cn(Cc2ccc(F)cc2)cc(C(=O)NCc2ccc(F)cc2F)c1=O | Tripartite terminase subunit 3 C-terminal nuclease domain | endonuclease activity, inhibitor, ELISA | – | 20 µM | – | 6% |
| C[C@]12CCC[C@H]1[C@@H]1CCc3c(cc(Br)c(O)c3Br)[C@H]1CC2 | AKR1C2 | enzyme activity, inhibitor, absorbance | – | 10 µM, pH 9 | – | 68% |
| CC(C)C(=O)Nc1ccccc1-c1nn[nH]n1 | VIM-2 (Escherichia coli, UniProt Q5U7L7) | enzyme activity, inhibitor | – | concentration not given | – | no inhibition |
